Experimental data pooled from the literature.
A part holds a random share of what one study measured.

Study 1
Target: Probable WRKY transcription factor 33, N-terminal DNA-binding domain (WRKY33, Arabidopsis thaliana, UniProt Q8S8P5, residues 169-264)
Method: DNA-protein interaction ELISA
Molecule type: double-stranded DNA, one strand shown
Medium: in vitro, bacterial lysate
Tested at: not given
Notes: whole dsDNA probe, crude lysate protein
Reference: highest signal in screen
Reading: higher = stronger binding
Construct (chain): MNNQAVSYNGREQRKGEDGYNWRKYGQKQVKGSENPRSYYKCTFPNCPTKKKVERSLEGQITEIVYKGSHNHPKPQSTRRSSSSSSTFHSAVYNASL
Oligonucleotide	relative absorbance
AAAAAAAGTTCGCGGATTTCGGCCATAAAA	23.6 % of maximum
AAAAAAAGTTACCAGTACGCGTCGGGAAAA	22 % of maximum
AAAAAATGCAGACCTTCAGCTGGGTAAAAA	24.6 % of maximum
AAAAAATCACAATACCTTCTCGTCATAAAA	15.8 % of maximum
AAAAAAGTTCGTGCTTAACCCAGTTTAAAA	21.9 % of maximum
AAAAAATGTGGTTACGGCCTCGATGAAAAA	17.7 % of maximum

Study 2
Target: Histone acetyltransferase KAT6A, winged helix 2, GST fusion (KAT6A, Homo sapiens, UniProt Q92794, residues 85-181)
Method: protein binding microarray
Molecule type: double-stranded DNA, one strand shown
Medium: in vitro
Tested at: not given
Notes: 8-mer, flanks averaged, mean of 2 arrays, mostly near background
Reference: not given
Reading: higher = stronger binding
Construct (chain): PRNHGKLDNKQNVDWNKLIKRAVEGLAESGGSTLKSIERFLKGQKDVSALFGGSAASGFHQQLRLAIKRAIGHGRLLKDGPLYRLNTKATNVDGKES
Oligonucleotide	E-score
AGTCTATG	-0.217
CCTGAACC	-0.0128
CACAATAG	-0.0226
AAAAATCC	0.121
GTACTAGA	0.00149
GAGGCGAA	0.201
ATGAGGCC	0.0586

Single results of other studies
Substance	target	assay	test system	conditions	scale	quantity	result
PSSMRKICTYFHR	human cyclin A2	peptide binding, competitive growth sequencing	peptide, Saccharomyces cerevisiae, cyclin A2-Cln2 fusion strain	mutational scanning library 2	direction not given	enrichment score	-0.58
PhoQ, residues 284 288 289 292 302 303 TLSLKA	PhoP, residues 12 14 15 18 19 MHTVL (Escherichia coli, UniProt P23836)	Sort-seq, item: YFP reporter	E. coli	PhoQ-PhoP variant library, added: 10 µM Mg2+	reference: high Mg2+ state, higher = stronger signaling	fold induction	2.12

For quick reference, copied from above (study 2):
Oligonucleotide	E-score
CCTGAACC	-0.0128
